Measured values gathered from unrelated publications.
± gives the spread as reported.

SMILES	assay	test system	setting	how to read	endpoint	result
CC[C@H](C)[C@H](NC(=O)[C@H](CC(=O)O)NC(=O)[C@H](CO)NC(=O)[C@H](CCC(N)=O)NC(=O)[C@H](C)NC(=O)[C@H](CC(=O)O)NC(=O)[C@H](CCC(=O)O)NC(=O)[C@H](Cc1c[nH]cn1)NC(=O)[C@H](Cc1ccc(O)cc1)NC(=O)[C@H](C)NC(=O)[C@H](CC(=O)O)NC(=O)[C@H](CCC(=O)O)NC(=O)[C@H](Cc1c[nH]cn1)NC(=O)[C@H](Cc1ccc(O)cc1)NC(=O)[C@H](C)NC(=O)[C@H](CC(=O)O)NC(=O)[C@H](CCC(=O)O)NC(=O)[C@H](Cc1c[nH]cn1)NC(=O)[C@H](Cc1ccc(O)cc1)NC(=O)[C@H](C)NC(=O)[C@H](CC(=O)O)NC(=O)[C@H](CCC(=O)O)NC(=O)[C@H](Cc1c[nH]cn1)NC(=O)[C@H](Cc1ccc(O)cc1)NC(=O)[C@H](C)NC(=O)[C@H](CC(=O)O)NC(=O)[C@H](CCC(=O)O)NC(=O)[C@H](Cc1c[nH]cn1)NC(=O)[C@@H](N)Cc1ccc(O)cc1)C(=O)N[C@H](C(=O)N[C@@H](C)C(=O)N[C@@H](Cc1c[nH]cn1)C(=O)N[C@@H](CC(C)C)C(=O)N[C@@H](CC(C)C)C(=O)O)C(C)C	–	normal mouse	dose not given	–	ALT	73 ± 7 IU/L
COC(=O)C[C@](O)(CCCC(C)(C)OC(C)=O)C(=O)O[C@@H]1C(OC)=C[C@]23CCCN2CCc2cc4c(cc2[C@H]13)OCO4	–	CD1 mouse, large intestine	oral, 1 mg/kg, 0.5 h	–	tissue concentration	79.4 ng/mL
O=P1(NCCCl)NCCCO1 (stereo not drawn)	–	rat, plasma	intravenous, 10 mg/kg CP, together with: ketoconazole 0 mg/kg	–	MRT(0-inf)	4.13 ± 0.253 h
CC(C)[C@H](NC(=O)CNC(=O)[C@H](CCC(N)=O)NC(=O)[C@H](C)N)C(=O)O	–	healthy male volunteers	intravenous, 15 mg/kg/h, 2 h, together with: LPS 2 ng/kg	–	subjects with unrelated AE	25%
CC1COCCN1c1nc(NCc2cccnc2C(F)(F)F)c2cccnc2n1 (stereo not drawn)	–	Sprague Dawley rat, both sexes	oral, 7 days	–	NOAEL	> 300 mg/kg
CC[C@H](C)[C@H](NC(=O)[C@H](CCC(=O)O)NC(=O)[C@H](CCC(=O)O)NC(=O)[C@H](Cc1ccccc1)NC(=O)[C@H](CC(=O)O)NC(=O)CNC(=O)[C@H](CC(N)=O)NC(=O)CNC(=O)CNC(=O)CNC(=O)CNC(=O)[C@@H]1CCCN1C(=O)[C@H](CCCNC(=N)N)NC(=O)[C@@H]1CCCN1C(=O)[C@H](N)Cc1ccccc1)C(=O)N1CCC[C@H]1C(=O)N[C@@H](CCC(=O)O)C(=O)N[C@@H](CCC(=O)O)C(=O)N[C@@H](Cc1ccc(O)cc1)C(=O)N[C@@H](CC(C)C)C(=O)O	LC-MS/MS	human plasma QC samples	time not given, range over storage conditions	–	recovery	93.7 to 101%
O=c1cc(-c2ccccc2)oc2c(Br)c(O)c(O)c(O)c12	–	C57BL/6 mouse, plasma	intravenous, 10 mg/kg	–	Ctrough	186 ± 176 ng/mL
Cc1ccc(OCC(=O)N(Cc2cccs2)c2ccn[nH]2)cc1	–	pregnant Crl:CD(SD) rat	oral gavage, 125, 300, 1000 mg/kg/day, gestation days 6-20, maternal and embryo-fetal toxicity	–	NOAEL	1000 mg/kg/day
CN[C@](C)(C[18F])C(=O)O	–	SCID mouse A549 xenograft, brain	15 min, post injection	–	tissue uptake	0.4 ± 0.04 %ID/g
CC[C@H](C)[C@@H]1NC(=O)[C@H](CCCCN)NC(=O)[C@H](CCCCN)NC(=O)[C@H](Cc2ccc(O)cc2)NC(=O)[C@H](CC(C)C)NC(=O)[C@@H]2CCCN2C(=O)[C@H](C)NC(=O)CNC(=O)CNC(=O)[C@H](CO)NC(=O)CNC(=O)CNC(=O)[C@H](CO)NC(=O)[C@H](CCC(=O)O)NC(=O)[C@H](CC(C)C)NC(=O)[C@H](CC(C)C)NC(=O)[C@H](CCCCN)NC(=O)[C@H](CCCCN)NC(=O)[C@H]([C@@H](C)CC)NC(=O)[C@H]([C@@H](C)CC)NC(=O)[C@H](CCCCN)NC(=O)[C@H](CCCCN)NC(=O)[C@H](Cc2ccc(O)cc2)NC(=O)[C@H](CC(C)C)NC(=O)[C@@H]2CCCN2C(=O)[C@H](C)NC(=O)CNC(=O)[C@@H]2CSSC[C@H](NC(=O)[C@H](CC(C)C)NC(=O)[C@H](CCCCN)NC(=O)[C@H](CCCCN)NC(=O)[C@H]([C@@H](C)CC)NC1=O)C(=O)N[C@@H](CCC(=O)O)C(=O)N[C@@H](CO)C(=O)NCC(=O)N2	hemolysis	uninfected human erythrocytes	1 h	–	HC10	95.7 ± 3.5 µM
[2H]C([2H])([2H])C([2H])([2H])C([2H])([2H])OC(C(=O)OC1CCNCC1)(c1ccccc1)c1ccccc1	measured: creatine phosphokinase increased	healthy Japanese male	oral, 12 mg once daily, 16 days	–	adverse drug reactions	0%
NC(=O)CC[C@@H]1NC(=O)[C@H](Cc2ccccc2)NC(=O)[C@H](Cc2ccc(O)cc2)NC(=O)[C@@H](N)CSSC[C@@H](C(=O)N2CCC[C@H]2C(=O)N[C@@H](CCCN=C(N)N)C(=O)NCC(N)=O)NC(=O)[C@H](CC(N)=O)NC1=O	radioimmunoassay	Sprague-Dawley rat, plasma	intra-arterial, 100 ng/kg, 5 min	relative to: 1 min post-injection	plasma level reduction	~99%
N=C(N)NCc1ccc(C(=O)NCCCC[C@H](NC(=O)N[C@@H](CCC(=O)O)C(=O)O)C(=O)O)cc1[211At]	–	SCID mouse, PC-3 xenografts, blood	2 h	–	tissue uptake	0.58 ± 0.08 %ID/g
CN(C)C(CNC(=O)Nc1cc(C(F)(F)F)ccc1N1CCOCC1)c1ccncc1 (stereo not drawn)	–	mouse, serum	intraperitoneal, 360 mg/kg single dose	–	serum sodium	144 mmol/L
O=S(=O)(O)C(F)(F)C(F)(F)OC(F)(C(F)(F)F)C(F)(F)OC(F)C(F)(F)F (stereo not drawn)	–	human, exposed residents, serum	May 2018, 11 months after discharge	–	median concentration	2.47 ng/mL
CCN(CC)CCOc1ccc(-c2nnn(Cc3ccc(OC)cc3)c2N)cc1	–	Sprague-Dawley rat, male	oral, 20 mg/kg	–	oral bioavailability	54.9%
C/C(=N\OCCCN1CCCCC1)c1ccc(C(F)(F)F)cc1	–	mouse, plasma	oral, 10 mg/kg	–	bioavailability	76.4%
CC(C)C[C@H](NC(=O)[C@H](CCCCN)NC(=O)[C@H](CC(C)C)NC(=O)[C@H](CC(C)C)NC(=O)[C@H](CCCCN)NC(=O)[C@H](CCCCN)NC(=O)[C@H](CC(C)C)NC(=O)[C@H](CC(C)C)NC(=O)[C@H](CCCCN)NC(=O)[C@H](CC(C)C)NC(=O)[C@H](CC(C)C)NC(=O)[C@H](CCCCN)NC(=O)[C@H](CCCCN)NC(=O)[C@H](CC(C)C)NC(=O)[C@@H](N)CSSC[C@H](N)C(=O)N[C@@H](CC(C)C)C(=O)N[C@@H](CCC(=O)O)C(=O)N[C@@H](CCC(=O)O)C(=O)N[C@@H](CC(C)C)C(=O)N[C@@H](CC(C)C)C(=O)N[C@@H](Cc1c[nH]cn1)C(=O)N[C@@H](Cc1c[nH]cn1)C(=O)N[C@@H](CC(C)C)C(=O)N[C@@H](CCC(=O)O)C(=O)N[C@@H](CCC(=O)O)C(=O)N[C@@H](CC(C)C)C(=O)N[C@@H](CC(C)C)C(=O)N[C@@H](Cc1c[nH]cn1)C(=O)N[C@@H](Cc1c[nH]cn1)C(N)=O)C(N)=O	chemical stability, HPLC	mouse, serum	8 h	–	compound remaining	~90.4%
CCCCCCCC(=O)OC[C@H](NC(=O)[C@H](CO)NC(=O)CN)C(=O)N[C@@H](Cc1ccccc1)C(=O)N[C@@H](CC(C)C)C(=O)N[C@@H](CO)C(=O)N1CCC[C@H]1C(=O)N[C@@H](CCC(=O)O)C(=O)N[C@@H](Cc1cnc[nH]1)C(=O)N[C@@H](CCC(N)=O)C(=O)N[C@@H](CCCNC(=N)N)C(=O)N[C@H](C(=O)N[C@@H](CCC(N)=O)C(=O)N[C@@H](CCC(N)=O)C(=O)N[C@@H](CCCNC(=N)N)C(=O)N[C@@H](CCCCN)C(=O)N[C@@H](CCC(=O)O)C(=O)N[C@@H](CO)C(=O)N[C@@H](CCCCN)C(=O)N[C@@H](CCCCN)C(=O)N1CCC[C@H]1C(=O)N1CCC[C@H]1C(=O)N[C@@H](C)C(=O)N[C@@H](CCCCN)C(=O)N[C@@H](CC(C)C)C(=O)N[C@@H](CCC(N)=O)C(=O)N1CCC[C@H]1C(=O)N[C@@H](CCCNC(=N)N)C(=O)O)C(C)C	ELISA	healthy humans, both sexes, plasma	continuous intravenous infusion, 1 µg/kg/h, 65 min	–	MRT	0.75 ± 0.05 h
CC[C@H](C)C(=O)N1CCC(NC(=O)Nc2ccc(OC(F)(F)F)c(F)c2)CC1	–	healthy volunteers	oral, 0.5 mg single dose	–	subjects with palpitations TEAE	0%
O=C(c1ccc(F)cc1)C1CCN(C2Cc3c(cccc3OCC[18F])CC2O)CC1 (single isomer, unassigned; (-))	–	Sprague-Dawley rat, male, muscle	intravenous, dose not given, 5 min	–	tissue uptake	0.171 ± 0.055 %ID/g
CCCC[C@H](NC(=O)CCOCCOCCNC(=O)CN1CCN(CC(=O)O)CCN(CC(=O)O)CCN(CC(=O)O)CC1)C(=O)N[C@H]1CC(=O)NCCCC[C@@H](C(N)=O)NC(=O)[C@H](Cc2c[nH]c3ccccc23)NC(=O)[C@H](CCCNC(=N)N)NC(=O)[C@@H](Cc2ccccc2)NC(=O)[C@H](Cc2c[nH]cn2)NC1=O [gallium-68 labelled]	radio-HPLC	mouse, plasma	intravenous, 8 to 12 MBq, 15 min post injection	–	intact compound	> 98%
COc1cc2ncnc(Oc3cccc(N[11C](=O)Nc4cc(C(C)(C)C(F)(F)F)on4)c3)c2cc1OC	radio-HPLC	female Balb/c nude mice, urine	intravenous, 5 min	relative to: radioactivity	metabolites in urine	88.1%
CC(C)[C@H](NC(=O)CNC(=O)[C@H](CCC(N)=O)NC(=O)[C@H](C)N)C(=O)O	–	human	10 mg/kg single dose	–	subjects with moderate adverse events	0%
Cc1ccc(/C=C/C(=O)O)cc1-c1cc2c(cc1C)C(C)(C)CCC2(C)C	–	Sprague-Dawley rat, male	oral, 100 mg/kg, 9 h, sesame oil vehicle	–	blood triglycerides	123 ± 27 mg/dL
CSCC[C@@H]1NC(=O)[C@@H]2CSSC[C@H](NC(=O)[C@H](CO)NC(=O)[C@H](C)N)C(=O)N[C@@H](CCCNC(=N)N)C(=O)N[C@@H]([C@@H](C)O)C(=O)N3CCC[C@H]3C(=O)N[C@@H](CCCCN)C(=O)N[C@@H](CC(=O)O)C(=O)N[C@H]3CSSC[C@H](NC(=O)[C@H](CCCCN)NC(=O)[C@H](CCCNC(=N)N)NC(=O)[C@H](CC(N)=O)NC1=O)C(=O)N[C@@H](CCCCN)C(=O)N[C@H]1CSSC[C@H](NC(=O)[C@@H]4CCCN4C(=O)[C@H](CC(=O)O)NC(=O)[C@H](C)NC3=O)C(=O)N[C@@H](C)C(=O)N[C@@H](CCCCN)C(=O)N[C@@H](CCC(=O)O)C(=O)N[C@@H]([C@@H](C)O)C(=O)NCC(=O)N[C@@H](CSSC[C@@H](C(N)=O)NC(=O)[C@H](CCCNC(=N)N)NC(=O)[C@H](CC(N)=O)NC1=O)C(=O)N1CCC[C@H]1C(=O)N[C@@H](Cc1ccc(O)cc1)C(=O)NCC(=O)N[C@@H](CCCCN)C(=O)N2	–	DA rat, pristane-induced arthritis, serum	subcutaneous, 0.1 mg/kg every other day, end of 21-day trial	–	alkaline phosphatase	57 U/L
O=C(C[P+]([Au-][Cl])(c1ccccc1)c1ccccc1)[O][Ti+2][O]C(=O)C[P+]([Au-][Cl])(c1ccccc1)c1ccccc1.c1cc[cH-]c1.c1cc[cH-]c1	–	DMSO/water 1:99	5 x 10 µM	–	pH	6.12
CCOP(=O)(OCC)OCCCCOC(=O)CC1=C(C)C(=Cc2ccc([S+](C)[O-])cc2)c2ccc(F)cc21 (stereo not drawn)	HPLC	mice, lung	inhalation, dose not given, 24 h, 8 min exposure	–	drug level	not detected
CC[C@@H]1C[C@]1(NC(=O)[C@@H]1C[C@@]2(CN1C(=O)[C@@H](NC(=O)[C@@H](NC(=O)[C@@H]1CCCCN1C(C)C)C1CCCCC1)C(C)(C)C)C(C)(C)C21CCC1)C(=O)NS(=O)(=O)N1CCCC1	–	human	oral, 1000 mg single dose	–	subjects with adverse events	66.7%
C[C@@H](CO)NC(=O)c1cc(-c2ccc(Cl)cc2)nn(-c2cnn(C)c2)c1=O	–	C57BL/6-Ly5.1 mice, B16F10-OVA melanoma	oral, 30 mg/kg once daily	–	body weight	not toxic

Some of these lines once more:
SMILES	assay	test system	setting	how to read	endpoint	result
CC(C)C[C@H](NC(=O)[C@H](CCCCN)NC(=O)[C@H](CC(C)C)NC(=O)[C@H](CC(C)C)NC(=O)[C@H](CCCCN)NC(=O)[C@H](CCCCN)NC(=O)[C@H](CC(C)C)NC(=O)[C@H](CC(C)C)NC(=O)[C@H](CCCCN)NC(=O)[C@H](CC(C)C)NC(=O)[C@H](CC(C)C)NC(=O)[C@H](CCCCN)NC(=O)[C@H](CCCCN)NC(=O)[C@H](CC(C)C)NC(=O)[C@@H](N)CSSC[C@H](N)C(=O)N[C@@H](CC(C)C)C(=O)N[C@@H](CCC(=O)O)C(=O)N[C@@H](CCC(=O)O)C(=O)N[C@@H](CC(C)C)C(=O)N[C@@H](CC(C)C)C(=O)N[C@@H](Cc1c[nH]cn1)C(=O)N[C@@H](Cc1c[nH]cn1)C(=O)N[C@@H](CC(C)C)C(=O)N[C@@H](CCC(=O)O)C(=O)N[C@@H](CCC(=O)O)C(=O)N[C@@H](CC(C)C)C(=O)N[C@@H](CC(C)C)C(=O)N[C@@H](Cc1c[nH]cn1)C(=O)N[C@@H](Cc1c[nH]cn1)C(N)=O)C(N)=O	chemical stability, HPLC	mouse, serum	8 h	–	compound remaining	~90.4%
N=C(N)NCc1ccc(C(=O)NCCCC[C@H](NC(=O)N[C@@H](CCC(=O)O)C(=O)O)C(=O)O)cc1[211At]	–	SCID mouse, PC-3 xenografts, blood	2 h	–	tissue uptake	0.58 ± 0.08 %ID/g
[2H]C([2H])([2H])C([2H])([2H])C([2H])([2H])OC(C(=O)OC1CCNCC1)(c1ccccc1)c1ccccc1	measured: creatine phosphokinase increased	healthy Japanese male	oral, 12 mg once daily, 16 days	–	adverse drug reactions	0%
